Assay results collected from several papers.
Lines come from different studies, so protocols differ. Several values in a cell are separate wells, animals, samples, runs or records. ± gives the spread as reported.
FFAR4: Free fatty acid receptor 4 (FFAR4, Homo sapiens, UniProt Q5NUL3)
UniProt Q5NUL3, sequence (whole entry, looked up): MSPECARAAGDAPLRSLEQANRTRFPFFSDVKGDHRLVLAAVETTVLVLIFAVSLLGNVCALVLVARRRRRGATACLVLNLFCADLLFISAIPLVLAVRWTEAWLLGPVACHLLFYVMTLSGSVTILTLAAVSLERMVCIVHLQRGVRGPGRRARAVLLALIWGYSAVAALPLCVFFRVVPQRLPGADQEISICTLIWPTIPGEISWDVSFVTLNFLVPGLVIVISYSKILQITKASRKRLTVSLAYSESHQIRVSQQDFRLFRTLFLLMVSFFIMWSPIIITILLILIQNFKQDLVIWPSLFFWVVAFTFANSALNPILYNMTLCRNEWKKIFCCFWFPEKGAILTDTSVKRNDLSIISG
Trypanothione synthetase: Trypanothione synthetase (Trypanosoma brucei brucei, UniProt Q8IEX1)
Alpha-amylase: Alpha-amylase (Bos taurus, UniProt Q3MHH8)
UniProt Q93009, sequence (whole entry, unmodified, looked up): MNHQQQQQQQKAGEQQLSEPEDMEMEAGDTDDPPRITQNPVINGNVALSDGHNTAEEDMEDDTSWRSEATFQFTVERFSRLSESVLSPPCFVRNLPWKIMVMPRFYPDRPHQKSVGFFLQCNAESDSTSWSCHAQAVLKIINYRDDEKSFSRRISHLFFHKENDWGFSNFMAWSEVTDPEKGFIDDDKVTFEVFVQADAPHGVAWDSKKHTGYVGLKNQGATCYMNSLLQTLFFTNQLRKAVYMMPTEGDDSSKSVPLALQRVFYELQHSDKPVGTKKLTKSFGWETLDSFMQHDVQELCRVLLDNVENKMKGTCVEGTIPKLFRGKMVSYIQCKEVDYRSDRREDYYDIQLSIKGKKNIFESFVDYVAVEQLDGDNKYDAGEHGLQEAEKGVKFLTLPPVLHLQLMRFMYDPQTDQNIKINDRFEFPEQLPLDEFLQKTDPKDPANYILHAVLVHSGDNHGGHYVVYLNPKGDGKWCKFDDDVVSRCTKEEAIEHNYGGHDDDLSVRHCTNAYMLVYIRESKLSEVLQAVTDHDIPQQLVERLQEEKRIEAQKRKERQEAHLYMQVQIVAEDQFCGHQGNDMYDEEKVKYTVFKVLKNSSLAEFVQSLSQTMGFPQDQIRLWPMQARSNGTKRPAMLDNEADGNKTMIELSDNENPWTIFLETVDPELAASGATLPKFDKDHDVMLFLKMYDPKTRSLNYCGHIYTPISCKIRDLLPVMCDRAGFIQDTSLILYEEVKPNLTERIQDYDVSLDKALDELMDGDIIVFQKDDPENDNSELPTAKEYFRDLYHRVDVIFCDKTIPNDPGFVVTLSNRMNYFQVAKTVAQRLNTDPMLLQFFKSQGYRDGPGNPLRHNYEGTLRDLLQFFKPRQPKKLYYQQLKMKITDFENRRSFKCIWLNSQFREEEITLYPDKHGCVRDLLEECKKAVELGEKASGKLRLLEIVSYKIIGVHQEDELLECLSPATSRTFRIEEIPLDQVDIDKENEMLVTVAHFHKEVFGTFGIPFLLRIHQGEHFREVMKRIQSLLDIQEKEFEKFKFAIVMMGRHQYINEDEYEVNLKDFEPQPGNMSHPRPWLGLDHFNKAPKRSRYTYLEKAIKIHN
UniProt P61073, sequence (whole entry, looked up): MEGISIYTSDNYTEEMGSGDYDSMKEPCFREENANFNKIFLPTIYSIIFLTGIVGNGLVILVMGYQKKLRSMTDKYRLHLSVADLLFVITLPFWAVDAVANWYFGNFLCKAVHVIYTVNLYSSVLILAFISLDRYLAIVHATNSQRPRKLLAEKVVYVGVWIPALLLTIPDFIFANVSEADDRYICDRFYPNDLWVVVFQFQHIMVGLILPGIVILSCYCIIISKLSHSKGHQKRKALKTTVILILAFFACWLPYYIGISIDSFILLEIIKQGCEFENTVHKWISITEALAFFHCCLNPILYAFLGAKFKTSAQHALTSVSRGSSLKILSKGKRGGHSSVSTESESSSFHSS
UniProt Q12852, sequence (whole entry, looked up): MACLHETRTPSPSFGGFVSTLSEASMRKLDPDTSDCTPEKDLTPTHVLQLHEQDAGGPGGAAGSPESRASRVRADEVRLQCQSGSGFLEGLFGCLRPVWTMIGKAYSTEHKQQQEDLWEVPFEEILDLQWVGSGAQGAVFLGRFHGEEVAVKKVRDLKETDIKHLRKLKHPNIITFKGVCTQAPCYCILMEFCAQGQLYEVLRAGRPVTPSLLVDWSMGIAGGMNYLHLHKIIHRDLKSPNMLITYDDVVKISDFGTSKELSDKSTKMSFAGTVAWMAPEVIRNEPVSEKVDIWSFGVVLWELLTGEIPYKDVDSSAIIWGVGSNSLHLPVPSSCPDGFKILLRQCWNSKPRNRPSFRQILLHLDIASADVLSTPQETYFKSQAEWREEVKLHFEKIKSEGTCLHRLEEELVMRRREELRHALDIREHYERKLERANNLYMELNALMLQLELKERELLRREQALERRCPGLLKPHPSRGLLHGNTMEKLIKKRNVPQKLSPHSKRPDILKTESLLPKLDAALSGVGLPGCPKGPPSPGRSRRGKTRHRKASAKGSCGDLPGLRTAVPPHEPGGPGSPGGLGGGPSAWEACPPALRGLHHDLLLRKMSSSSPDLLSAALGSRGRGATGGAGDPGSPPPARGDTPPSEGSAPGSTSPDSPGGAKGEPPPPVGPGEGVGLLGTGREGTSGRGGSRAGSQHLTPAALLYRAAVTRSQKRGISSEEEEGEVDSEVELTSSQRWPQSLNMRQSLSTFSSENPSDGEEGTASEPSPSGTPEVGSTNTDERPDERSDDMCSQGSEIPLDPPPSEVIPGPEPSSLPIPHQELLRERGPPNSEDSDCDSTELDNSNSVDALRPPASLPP
UniProt O43497, sequence (whole entry, looked up): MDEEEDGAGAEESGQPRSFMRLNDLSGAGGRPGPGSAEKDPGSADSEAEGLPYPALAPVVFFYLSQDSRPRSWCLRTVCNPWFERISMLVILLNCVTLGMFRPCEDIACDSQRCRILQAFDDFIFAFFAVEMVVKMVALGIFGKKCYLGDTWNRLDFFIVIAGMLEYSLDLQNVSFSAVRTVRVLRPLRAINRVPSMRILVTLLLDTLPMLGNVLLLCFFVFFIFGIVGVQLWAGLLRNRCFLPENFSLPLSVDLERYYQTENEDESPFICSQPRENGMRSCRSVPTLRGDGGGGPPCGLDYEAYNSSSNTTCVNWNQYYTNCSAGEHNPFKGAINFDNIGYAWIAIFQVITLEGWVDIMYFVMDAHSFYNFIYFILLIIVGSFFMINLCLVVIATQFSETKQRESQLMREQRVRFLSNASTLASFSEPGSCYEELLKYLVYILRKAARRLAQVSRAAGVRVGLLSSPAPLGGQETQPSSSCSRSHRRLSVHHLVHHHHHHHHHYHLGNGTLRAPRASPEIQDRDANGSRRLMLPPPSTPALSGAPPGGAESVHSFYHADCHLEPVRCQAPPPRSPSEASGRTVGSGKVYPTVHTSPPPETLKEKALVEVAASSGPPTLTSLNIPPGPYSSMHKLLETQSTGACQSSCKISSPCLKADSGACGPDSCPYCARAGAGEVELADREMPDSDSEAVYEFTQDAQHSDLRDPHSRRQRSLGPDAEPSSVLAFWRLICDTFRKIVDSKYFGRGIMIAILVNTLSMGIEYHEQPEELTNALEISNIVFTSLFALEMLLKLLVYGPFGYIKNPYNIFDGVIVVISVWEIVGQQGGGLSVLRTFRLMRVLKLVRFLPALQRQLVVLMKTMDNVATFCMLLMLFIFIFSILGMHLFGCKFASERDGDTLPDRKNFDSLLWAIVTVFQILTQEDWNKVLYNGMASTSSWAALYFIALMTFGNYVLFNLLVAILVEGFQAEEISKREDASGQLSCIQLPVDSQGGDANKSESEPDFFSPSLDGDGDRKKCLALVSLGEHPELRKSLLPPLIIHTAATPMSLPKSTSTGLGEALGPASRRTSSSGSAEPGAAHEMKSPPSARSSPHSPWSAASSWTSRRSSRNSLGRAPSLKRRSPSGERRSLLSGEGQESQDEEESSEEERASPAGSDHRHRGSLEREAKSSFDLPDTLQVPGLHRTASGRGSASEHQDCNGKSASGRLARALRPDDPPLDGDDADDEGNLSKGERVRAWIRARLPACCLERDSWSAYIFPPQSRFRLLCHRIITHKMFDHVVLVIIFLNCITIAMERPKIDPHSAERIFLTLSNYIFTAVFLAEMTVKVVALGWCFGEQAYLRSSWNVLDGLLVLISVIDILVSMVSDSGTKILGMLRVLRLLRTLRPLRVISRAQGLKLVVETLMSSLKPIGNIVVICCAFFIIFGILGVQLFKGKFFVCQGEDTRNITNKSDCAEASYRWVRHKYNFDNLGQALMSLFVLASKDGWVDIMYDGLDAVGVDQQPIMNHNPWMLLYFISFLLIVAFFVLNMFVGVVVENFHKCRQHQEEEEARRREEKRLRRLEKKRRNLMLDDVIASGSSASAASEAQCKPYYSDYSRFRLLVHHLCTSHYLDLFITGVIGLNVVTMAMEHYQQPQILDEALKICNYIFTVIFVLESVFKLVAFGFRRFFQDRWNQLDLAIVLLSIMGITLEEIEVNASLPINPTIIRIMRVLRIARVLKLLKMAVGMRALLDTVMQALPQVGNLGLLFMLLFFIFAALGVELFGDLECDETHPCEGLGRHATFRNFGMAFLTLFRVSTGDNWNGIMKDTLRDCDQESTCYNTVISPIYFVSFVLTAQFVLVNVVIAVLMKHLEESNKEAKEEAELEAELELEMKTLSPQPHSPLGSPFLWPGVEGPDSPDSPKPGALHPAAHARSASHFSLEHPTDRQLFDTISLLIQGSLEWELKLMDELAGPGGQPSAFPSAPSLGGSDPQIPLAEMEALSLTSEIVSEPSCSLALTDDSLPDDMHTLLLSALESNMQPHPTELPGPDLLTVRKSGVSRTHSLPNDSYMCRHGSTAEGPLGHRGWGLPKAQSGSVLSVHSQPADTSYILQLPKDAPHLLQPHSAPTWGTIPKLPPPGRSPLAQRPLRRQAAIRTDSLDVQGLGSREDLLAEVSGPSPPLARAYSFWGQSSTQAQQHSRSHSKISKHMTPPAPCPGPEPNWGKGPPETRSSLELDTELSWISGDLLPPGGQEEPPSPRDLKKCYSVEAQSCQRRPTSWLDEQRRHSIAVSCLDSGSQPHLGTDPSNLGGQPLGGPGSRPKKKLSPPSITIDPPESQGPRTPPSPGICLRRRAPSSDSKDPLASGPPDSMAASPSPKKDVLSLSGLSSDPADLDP

The inhibition of `[2H]c1cc(C)c(NC(=O)c2cnc(Nc3cc(N4CCCCC4)nc(C)n3)s2)c(Cl)c1` is reported as over 50% (Tyrosine-protein kinase Lck (LCK, Homo sapiens, UniProt P06239); 0.0001 µM).
The inhibition of `Cc1ccc(C(=O)Nc2ccc3ccccc3c2)o1` is reported as 11.7% (Voltage-dependent T-type calcium channel subunit alpha-1G (CACNA1G, Homo sapiens, UniProt O43497); ion current, whole-cell patch-clamp; 10 µM, hCav3.1).
With `CCCCCCCNc1cc(=O)[nH]c(=O)[nH]1` the inhibition was 18 ± 1% (FFAR4; antagonist, β-arrestin recruitment; CHO cells; 10 µM).
The inhibition of `Cc1cccc(C)c1NC(=O)c1nc(S(C)(=O)=O)ncc1N(Cc1ccccc1)Cc1ccco1` is reported as -0.09% and 0.28% (C-X-C chemokine receptor type 4 (CXCR4, Homo sapiens, UniProt P61073); arrestin recruitment, antagonist, DiscoverX arrestin; 30 µM; reference: control).
For `O=C(Nc1cccc2c(=O)cc(-c3nnn[nH]3)oc12)c1ccc(OCCCCc2ccccc2)cc1`, the inhibition was 90.4% and 87.4% and 86% and 94.8% (Volume-regulated anion channel subunit LRRC8C, part LRRC8A IL1 chimera (LRRC8C, Homo sapiens, UniProt Q8TDW0, E6A); ion current, inhibitor, whole-cell patch clamp; HCT LRRC8-/- cells; 3 µM, -100 mV).
`O=C(O[C@@H]1COC(=O)c2cc(O)c(O)c(O)c2-c2c(cc(O)c(O)c2O)C(=O)O[C@H]1[C@@H]1OC(=O)c2cc(O)c(O)c(O)c2-c2c(O)c(O)c(O)c3c2C(=O)O[C@H]1[C@@H]3O)c1cc(O)c(O)c(O)c1` has an inhibition of 32.7 ± 1.9% (hyaluronidase (bovine testes); enzyme activity; 200 µg/mL).
With `CC[C@@H]1[C@H](F)C(=O)N[C@@H]1COc1nccc2cc(C(N)=O)c(OC)cc12` the inhibition was -15.2% (Calcium/calmodulin-dependent protein kinase type 1D (CAMK1D, Homo sapiens, UniProt Q8IU85); ATP-site probe binding, ActivX profiling; THP-1 cell lysate; 0.04 mM, Lys2 site).
`CN(C)C(=O)CN1C(=O)Cc2c([nH]c3ccc(Br)cc23)-c2ccc(Cl)cc21` gave an inhibition of 24.6 ± 3.8% (Trypanothione synthetase; enzyme activity, inhibitor, BIOMOL Green; 30 µM).
With `COc1cc(C(=O)OCCCN2CCCN(CCCOC(=O)c3cc(OC)c(OC)c(OC)c3)CC2)cc(OC)c1OC` the inhibition was 16.2% and 17.8% (Equilibrative nucleoside transporter 2 (Homo sapiens, UniProt Q14542); nucleoside transport, inhibitor; MDCKII cells expressing ENT2; 2 µM, with: adenosine).
With `CC1=NNC(=S)NC(=O)C1/N=N/c1ccc(S(N)(=O)=O)cc1` (stereo not drawn) the inhibition was 17.5% (Alpha-amylase; enzyme activity, inhibitor, glucose oxidase; 200 µg/mL, with: dextrin).
With `O=c1cc(NCCCc2ccccc2)[nH]c(=O)[nH]1` the inhibition was 14 ± 16% (FFAR4; antagonist, β-arrestin recruitment; CHO cells; 10 µM).
With `CC1=NN(c2cccc(C)c2)C(=O)C1=NNc1ccc(S(N)(=O)=O)cc1` the inhibition was 22.6% (Alpha-amylase; enzyme activity, inhibitor, glucose oxidase; 500 µg/mL, with: dextrin).
The inhibition of `CC(C)(C)CNc1cc(=O)[nH]c(=O)[nH]1` is reported as 23 ± 6% (FFAR4; antagonist, β-arrestin recruitment; CHO cells; 10 µM, with: 4 µM TUG-891).
`CC1=NN(c2ccccc2)C(=O)C1=NNc1ccc(S(N)(=O)=O)cc1` has an inhibition of 25.3% (Alpha-amylase; enzyme activity, inhibitor, glucose oxidase; 200 µg/mL, with: dextrin).
With `CC(C)(C)CCNc1cc(=O)[nH]c(=O)[nH]1` the inhibition was 18 ± 5% (FFAR4; antagonist, β-arrestin recruitment; CHO cells; 10 µM).
`CC(C)NCC(O)COc1cccc2ccccc12` (racemic) has an inhibition of 100% (rat β-Adrenergic receptor; binding; 1 × 10 µM).
With `COc1cc2c3c(c1OC)-c1cc4c(cc1CC3N(C)CC2c1ccccc1)OCO4` (stereo not drawn) the inhibition was under 50% (benzodiazepine site (rat brain); binding; rat brain; concentration not given, primary screen).
`CC1=NN(c2cccc([N+](=O)[O-])c2)C(=O)C1=NNc1ccc(S(N)(=O)=O)cc1` gave an inhibition of 6.53% (Alpha-amylase; enzyme activity, inhibitor, glucose oxidase; 50 µg/mL, with: dextrin).
`Cc1nn(-c2nc3c(F)cc(F)cc3s2)c(O)c1C(c1ccc(C(F)(F)F)cc1)c1c(C)nn(-c2nc3c(F)cc(F)cc3s2)c1O` has an inhibition of 59.9% (Cyclic GMP-AMP synthase, catalytic domain; with DNA (CGAS, Homo sapiens, UniProt Q8N884); cGAS phase separation, inhibitor; 6.25 µM).
The inhibition of `CN1CCN(C(=O)CN2C(=O)Cc3c([nH]c4ccc(Br)cc34)-c3ccc(Cl)cc32)CC1` is reported as 31.6 ± 6% (Trypanothione synthetase; enzyme activity; Trypanosoma brucei; 30 µM).
With `CCN1CCN(Cc2ccc(NC(=O)c3ccc(C)c(/C=C/c4cnc5[nH]ccc5c4OC)c3)cc2C(F)(F)F)CC1` the inhibition was -30.3% (Calcium/calmodulin-dependent protein kinase kinase 2 (CAMKK2, Homo sapiens, UniProt Q96RR4); A-375; 0.5 µM).
For `CN1CCN(c2cc(-c3ccncc3)c(-c3ccc4ccccc4c3)nn2)CC1`, the inhibition was 23.6% (Glucagon receptor (GCGR, Homo sapiens, UniProt P47871); antagonist, FLIPR; 10 µM).
The inhibition of `CN(C(=O)n1cnc(-c2ccc[n+]([O-])c2)c1)C1CCCCC1` is reported as -11.8% (Muscarinic acetylcholine receptor M2 (CHRM2, Homo sapiens, UniProt P08172); receptor binding; 10 µM, subtype M2).
With `CCCCCCCNc1[nH]c(=O)[nH]c(=O)c1N=O` the inhibition was 27 ± 5% (FFAR4; antagonist, β-arrestin recruitment; CHO cells; 10 µM).
For `CC1=NN(c2ccccn2)C(=O)C1=NNc1ccc(S(N)(=O)=O)cc1`, the inhibition was 19% (Alpha-amylase; enzyme activity, inhibitor, glucose oxidase; 500 µg/mL, with: dextrin).
With `CNC(=O)CN1C(=O)Cc2c([nH]c3ccc(Br)cc23)-c2ccc(Cl)cc21` the inhibition was 44.4 ± 3.6% (Trypanothione synthetase; enzyme activity, inhibitor, BIOMOL Green; 30 µM).
`CC1=NNC(=O)C1=NNc1ccc(S(N)(=O)=O)cc1` gave an inhibition of 14.8% (Alpha-amylase; enzyme activity, inhibitor, glucose oxidase; 200 µg/mL, with: dextrin).
`CCCCCCNc1[nH]c(=O)[nH]c(=O)c1N=O` gave an inhibition of 13 ± 3% (FFAR4; antagonist, β-arrestin recruitment; CHO cells; 10 µM).
For `Cn1cc(-c2cnc3ccc(NC(=O)Nc4ccc(F)c(Br)c4)cc3n2)cn1`, the inhibition was 1.4% (Mitogen-activated protein kinase kinase kinase 12 (MAP3K12, Homo sapiens, UniProt Q12852); kinase binding, KiNativ profiling, measured: Lys2 peptide; PANC-1 lysate; 10 µM).
`O=c1cc(NCCCCc2ccccc2)[nH]c(=O)[nH]1` has an inhibition of 21 ± 3% (FFAR4; antagonist, β-arrestin recruitment; CHO cells; 10 µM, with: 4 µM TUG-891).
The inhibition of `O=C(C[C@@H](C(F)F)n1ccc(F)n1)N1CCC(O)(Cn2cnc3c(cnn3-c3ccc(F)cc3)c2=O)CC1` is reported as 66.2% and 74.1% (Ubiquitin carboxyl-terminal hydrolase 7 (USP7, Homo sapiens, UniProt Q93009, V517F); enzyme activity, inhibitor; 50 µM).
For `O=c1cc(NCCc2c[nH]c3ccccc23)[nH]c(=O)[nH]1`, the inhibition was 14 ± 6% (FFAR4; antagonist, β-arrestin recruitment; CHO cells; 10 µM, with: 4 µM TUG-891).
`O=c1c(O)c(-c2ccc(O)c(O)c2)oc2cc(O)cc(O)c12` gave an inhibition of 70% (Ubiquitin carboxyl-terminal hydrolase 51 (USP51, Homo sapiens, UniProt Q70EK9); inhibitor; 1 µM, 1 h preincubation, with: Ub-AMC 250 nM).

For quick reference, copied from above:
`O=C(O[C@@H]1COC(=O)c2cc(O)c(O)c(O)c2-c2c(cc(O)c(O)c2O)C(=O)O[C@H]1[C@@H]1OC(=O)c2cc(O)c(O)c(O)c2-c2c(O)c(O)c(O)c3c2C(=O)O[C@H]1[C@@H]3O)c1cc(O)c(O)c(O)c1` has an inhibition of 32.7 ± 1.9% (hyaluronidase (bovine testes); enzyme activity; 200 µg/mL).
The inhibition of `Cc1cccc(C)c1NC(=O)c1nc(S(C)(=O)=O)ncc1N(Cc1ccccc1)Cc1ccco1` is reported as -0.09% and 0.28% (C-X-C chemokine receptor type 4 (CXCR4, Homo sapiens, UniProt P61073); arrestin recruitment, antagonist, DiscoverX arrestin; 30 µM; reference: control).
